{"data": "Experimental data from different studies", "organism": "Klebsiella pneumoniae", "note": "Compare with care: the assays were run in different laboratories."}
{"Compound": "C#CCO/N=C(\\C(=O)N[C@@H]1C(=O)N(OS(=O)(=O)O)C1(C)C)c1csc(N)n1", "method": "agar dilution", "strain": "09-20, NDM-1", "MIC": "1 µg/mL"}
{"Compound": "CC[C@H](C)[C@H](NC(=O)[C@@H](CCCNC(=N)N)NC(=O)[C@H](CCCNC(=N)N)NC(=O)[C@H](CO)NC(=O)[C@H](Cc1c[nH]c2ccccc12)NC(=O)[C@H](CCCNC(=N)N)NC(=O)[C@@H]1CCCN1C(=O)[C@H](CCCNC(=N)N)NC(=O)[C@@H]1CCCN1C(=O)[C@H](CC(C)C)NC(=O)[C@H](Cc1ccc(O)cc1)NC(=O)[C@@H]1CCCN1C(=O)[C@@H]1CCCN1C(=O)[C@H](CCCCN)NC(=O)[C@H](CC(=O)O)NC(=O)[C@@H](N)C(C)C)C(=O)N[C@@H](Cc1ccc(O)cc1)C(=O)N[C@@H](CC(N)=O)C(=O)N[C@H](CCCNC(=N)N)C(N)=O", "method": "broth microdilution", "strain": "DSM 681", "time": "18 h", "temperature": "37 °C", "setting": "25% MHB2", "MIC": "2 µg/mL"}
{"Compound": "CC(=O)N[C@H](Cc1ccccc1F)C(=O)N[C@@H](CCN)C(=O)N[C@H](C(=O)N[C@@H](CCN)C(=O)N[C@H]1CCNC(=O)[C@H]([C@@H](C)O)NC(=O)[C@H](CCN)NC(=O)[C@H](CCN)NC(=O)[C@H](CC(C)C)NC(=O)[C@@H](Cc2ccccc2)NC(=O)[C@H](CCN)NC1=O)[C@@H](C)O", "method": "broth microdilution", "strain": "ATCC 13883, colistin-susceptible", "MIC": "> 64 µg/mL"}
{"Compound": "COc1ccc2ccc(O)c(/C=N/[C@H]3CCCC[C@H]3/N=C/c3cc(C(C)(C)C)cc(C(C)(C)C)c3O)c2c1", "observed": "bacterial growth", "method": "broth microdilution", "strain": "carbapenem-resistant clinical isolate", "MIC": "> 40 µM"}
{"Compound": "N=C(N)NCCC[C@@H]1NC(=O)[C@H](CCCNC(=N)N)NC(=O)[C@@H](CCCNC(=N)N)NC(=O)[C@@H](CCCNC(=N)N)NC(=O)[C@@H](C(c2ccccc2)c2ccccc2)NC(=O)[C@@H](Cc2c[nH]c3ccccc23)NC(=O)[C@@H](C(c2ccccc2)c2ccccc2)NC1=O", "strain": "ATCC BAA1705, KPC-2 carbapenem-resistant", "MIC": "> 64 µg/mL"}
{"Compound": "CC(=CC(C)CCCCC(=O)O)C1OC2C=CC1OC(=O)C=CC=CC=CC1OC3CC1OC(C=CCC1OC(CC(O)C1C)C(O)C(O)C=CCCC=CC2)C3C (stereo not drawn)", "observed": "microbial growth", "strain": "DSM11678", "MIC": "> 20 µM"}
{"Compound": "CC1(C)[C@H](NC(=O)/C(=N\\OCCN)c2csc(N)n2)C(=O)N1OS(=O)(=O)O", "method": "agar dilution", "strain": "2146, NDM-1", "MIC": "> 64 µg/mL"}
{"Compound": "CCn1c(-c2ccc(F)cc2)c(-c2ccc(F)cc2)n(CCOC)c1=[Se]", "method": "broth microdilution", "strain": "carbapenem-resistant BAA-1705", "time": "24 h", "MIC": "> 40 µM"}
{"Compound": "CC[C@H](C)[C@H](NC(=O)[C@@H](CCCNC(=N)N)NC(=O)[C@H](CCCNC(=N)N)NC(=O)[C@@H]1CCCN1C(=O)[C@@H]1CCCN1C(=O)[C@H](CCCNC(=N)N)NC(=O)[C@@H]1CCCN1C(=O)[C@H](CCCNC(=N)N)NC(=O)[C@@H]1CCCN1C(=O)[C@H](CC(C)C)NC(=O)[C@H](Cc1ccc(O)cc1)NC(=O)[C@H](Cc1ccccc1)NC(=O)[C@@H]1CCCN1C(=O)[C@H](CCCCN)NC(=O)[C@H](CC(=O)O)NC(=O)[C@@H](N)C(C)C)C(=O)N[C@@H](Cc1ccc(O)cc1)C(=O)N[C@@H](CC(N)=O)C(=O)N[C@H](CCCNC(=N)N)C(N)=O", "method": "broth microdilution", "strain": "DSM 681", "time": "18 h", "temperature": "37 °C", "setting": "25% MHB2", "MIC": "8 µg/mL"}
{"note": "For quick reference, copied from above:"}
{"Compound": "N=C(N)NCCC[C@@H]1NC(=O)[C@H](CCCNC(=N)N)NC(=O)[C@@H](CCCNC(=N)N)NC(=O)[C@@H](CCCNC(=N)N)NC(=O)[C@@H](C(c2ccccc2)c2ccccc2)NC(=O)[C@@H](Cc2c[nH]c3ccccc23)NC(=O)[C@@H](C(c2ccccc2)c2ccccc2)NC1=O", "strain": "ATCC BAA1705, KPC-2 carbapenem-resistant", "MIC": "> 64 µg/mL"}
